Experimental data collected from several papers.
Parts stem from different laboratories: compare values within a part only. Positions count from the first letter of the parent shown.
Sequence of UniProt Q15418 (whole entry, looked up): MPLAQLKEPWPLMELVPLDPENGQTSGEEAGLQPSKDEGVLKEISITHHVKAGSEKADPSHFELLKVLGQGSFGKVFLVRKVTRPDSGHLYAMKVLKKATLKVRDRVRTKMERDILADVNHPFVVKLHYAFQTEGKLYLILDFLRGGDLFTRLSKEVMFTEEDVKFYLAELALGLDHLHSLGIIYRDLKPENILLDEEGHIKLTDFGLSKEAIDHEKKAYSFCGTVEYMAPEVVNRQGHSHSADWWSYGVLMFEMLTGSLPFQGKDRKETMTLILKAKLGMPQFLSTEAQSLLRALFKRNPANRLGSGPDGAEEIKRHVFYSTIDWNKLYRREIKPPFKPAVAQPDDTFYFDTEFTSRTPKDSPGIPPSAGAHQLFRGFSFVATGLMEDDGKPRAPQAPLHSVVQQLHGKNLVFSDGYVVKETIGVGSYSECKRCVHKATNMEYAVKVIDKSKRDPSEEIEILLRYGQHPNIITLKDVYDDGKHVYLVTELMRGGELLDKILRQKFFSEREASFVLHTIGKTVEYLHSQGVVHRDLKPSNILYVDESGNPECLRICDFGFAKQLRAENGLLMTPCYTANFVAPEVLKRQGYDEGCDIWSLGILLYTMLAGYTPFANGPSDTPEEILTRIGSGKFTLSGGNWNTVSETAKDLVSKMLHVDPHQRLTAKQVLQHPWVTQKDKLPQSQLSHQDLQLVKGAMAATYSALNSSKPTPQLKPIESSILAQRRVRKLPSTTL
Sequence of UniProt P48729 (whole entry, looked up): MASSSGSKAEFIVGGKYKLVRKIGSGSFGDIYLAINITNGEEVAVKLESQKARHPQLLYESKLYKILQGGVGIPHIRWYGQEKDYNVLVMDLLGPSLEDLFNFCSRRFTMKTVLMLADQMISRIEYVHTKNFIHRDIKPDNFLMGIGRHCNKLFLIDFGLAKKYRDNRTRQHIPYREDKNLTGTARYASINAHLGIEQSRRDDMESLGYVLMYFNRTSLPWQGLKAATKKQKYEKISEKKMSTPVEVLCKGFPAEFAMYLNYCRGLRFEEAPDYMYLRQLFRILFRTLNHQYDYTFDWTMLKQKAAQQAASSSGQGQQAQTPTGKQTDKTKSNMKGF
Sequence of UniProt P08069 (whole entry, looked up): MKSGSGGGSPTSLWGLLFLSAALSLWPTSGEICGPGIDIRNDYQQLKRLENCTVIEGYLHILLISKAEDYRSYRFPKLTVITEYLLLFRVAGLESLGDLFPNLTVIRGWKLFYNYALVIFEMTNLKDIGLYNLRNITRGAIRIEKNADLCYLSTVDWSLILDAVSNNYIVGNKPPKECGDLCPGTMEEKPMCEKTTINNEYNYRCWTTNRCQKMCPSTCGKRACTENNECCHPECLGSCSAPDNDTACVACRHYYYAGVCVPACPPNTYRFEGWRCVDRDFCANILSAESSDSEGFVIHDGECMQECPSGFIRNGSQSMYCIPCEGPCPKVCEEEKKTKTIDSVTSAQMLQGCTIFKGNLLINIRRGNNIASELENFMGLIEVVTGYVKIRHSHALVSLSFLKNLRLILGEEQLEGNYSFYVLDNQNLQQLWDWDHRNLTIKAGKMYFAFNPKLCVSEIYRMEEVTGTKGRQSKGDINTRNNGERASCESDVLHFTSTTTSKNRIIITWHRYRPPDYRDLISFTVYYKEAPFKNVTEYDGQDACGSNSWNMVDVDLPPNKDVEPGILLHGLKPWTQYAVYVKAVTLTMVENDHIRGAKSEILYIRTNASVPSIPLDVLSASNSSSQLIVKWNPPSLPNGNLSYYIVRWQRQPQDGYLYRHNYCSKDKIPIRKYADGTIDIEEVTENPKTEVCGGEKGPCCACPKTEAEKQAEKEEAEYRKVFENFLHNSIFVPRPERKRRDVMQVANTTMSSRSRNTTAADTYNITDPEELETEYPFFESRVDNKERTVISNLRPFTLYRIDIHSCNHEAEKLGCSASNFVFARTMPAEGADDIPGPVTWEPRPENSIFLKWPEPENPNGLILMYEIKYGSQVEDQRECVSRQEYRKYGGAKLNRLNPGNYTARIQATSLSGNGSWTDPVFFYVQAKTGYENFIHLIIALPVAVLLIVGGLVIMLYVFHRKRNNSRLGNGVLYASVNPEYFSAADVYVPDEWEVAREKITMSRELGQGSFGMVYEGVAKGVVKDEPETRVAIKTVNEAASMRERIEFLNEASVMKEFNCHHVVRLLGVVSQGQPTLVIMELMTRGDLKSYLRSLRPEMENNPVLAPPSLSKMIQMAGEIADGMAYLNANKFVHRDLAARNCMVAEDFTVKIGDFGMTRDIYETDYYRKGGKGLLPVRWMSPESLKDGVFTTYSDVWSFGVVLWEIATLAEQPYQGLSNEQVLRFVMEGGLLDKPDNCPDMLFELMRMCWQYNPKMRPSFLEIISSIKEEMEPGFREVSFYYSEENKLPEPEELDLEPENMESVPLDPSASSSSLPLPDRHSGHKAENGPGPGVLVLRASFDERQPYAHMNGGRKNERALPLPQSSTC
Sequence of UniProt Q9UF33 (whole entry, looked up): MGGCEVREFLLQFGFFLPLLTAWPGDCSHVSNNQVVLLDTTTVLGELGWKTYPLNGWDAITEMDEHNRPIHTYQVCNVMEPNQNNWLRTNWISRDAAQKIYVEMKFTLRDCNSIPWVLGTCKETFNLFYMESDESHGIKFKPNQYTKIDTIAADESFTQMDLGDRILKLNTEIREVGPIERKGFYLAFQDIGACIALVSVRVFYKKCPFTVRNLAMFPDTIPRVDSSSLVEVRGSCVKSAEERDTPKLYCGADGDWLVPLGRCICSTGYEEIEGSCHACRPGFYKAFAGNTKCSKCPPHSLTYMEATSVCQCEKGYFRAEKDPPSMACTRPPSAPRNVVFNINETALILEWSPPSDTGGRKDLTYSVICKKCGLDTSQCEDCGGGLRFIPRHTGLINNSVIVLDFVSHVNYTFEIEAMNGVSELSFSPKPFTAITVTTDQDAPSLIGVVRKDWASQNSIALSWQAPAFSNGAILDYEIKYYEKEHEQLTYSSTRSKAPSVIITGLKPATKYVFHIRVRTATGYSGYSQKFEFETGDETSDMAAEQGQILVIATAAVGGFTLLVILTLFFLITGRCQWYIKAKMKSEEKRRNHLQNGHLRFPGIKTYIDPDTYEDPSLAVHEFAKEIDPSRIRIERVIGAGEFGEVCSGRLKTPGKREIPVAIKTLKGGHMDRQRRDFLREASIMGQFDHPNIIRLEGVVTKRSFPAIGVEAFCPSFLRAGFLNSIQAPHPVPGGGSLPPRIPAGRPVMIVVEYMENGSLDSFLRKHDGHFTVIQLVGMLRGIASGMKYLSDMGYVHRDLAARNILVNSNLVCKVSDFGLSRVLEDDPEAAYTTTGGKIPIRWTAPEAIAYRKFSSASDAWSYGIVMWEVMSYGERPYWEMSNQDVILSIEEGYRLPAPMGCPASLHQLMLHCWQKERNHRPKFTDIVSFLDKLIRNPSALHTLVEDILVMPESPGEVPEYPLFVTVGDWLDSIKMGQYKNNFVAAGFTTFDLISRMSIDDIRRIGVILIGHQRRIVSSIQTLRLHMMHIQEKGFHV
Sequence of UniProt O00329 (whole entry, looked up): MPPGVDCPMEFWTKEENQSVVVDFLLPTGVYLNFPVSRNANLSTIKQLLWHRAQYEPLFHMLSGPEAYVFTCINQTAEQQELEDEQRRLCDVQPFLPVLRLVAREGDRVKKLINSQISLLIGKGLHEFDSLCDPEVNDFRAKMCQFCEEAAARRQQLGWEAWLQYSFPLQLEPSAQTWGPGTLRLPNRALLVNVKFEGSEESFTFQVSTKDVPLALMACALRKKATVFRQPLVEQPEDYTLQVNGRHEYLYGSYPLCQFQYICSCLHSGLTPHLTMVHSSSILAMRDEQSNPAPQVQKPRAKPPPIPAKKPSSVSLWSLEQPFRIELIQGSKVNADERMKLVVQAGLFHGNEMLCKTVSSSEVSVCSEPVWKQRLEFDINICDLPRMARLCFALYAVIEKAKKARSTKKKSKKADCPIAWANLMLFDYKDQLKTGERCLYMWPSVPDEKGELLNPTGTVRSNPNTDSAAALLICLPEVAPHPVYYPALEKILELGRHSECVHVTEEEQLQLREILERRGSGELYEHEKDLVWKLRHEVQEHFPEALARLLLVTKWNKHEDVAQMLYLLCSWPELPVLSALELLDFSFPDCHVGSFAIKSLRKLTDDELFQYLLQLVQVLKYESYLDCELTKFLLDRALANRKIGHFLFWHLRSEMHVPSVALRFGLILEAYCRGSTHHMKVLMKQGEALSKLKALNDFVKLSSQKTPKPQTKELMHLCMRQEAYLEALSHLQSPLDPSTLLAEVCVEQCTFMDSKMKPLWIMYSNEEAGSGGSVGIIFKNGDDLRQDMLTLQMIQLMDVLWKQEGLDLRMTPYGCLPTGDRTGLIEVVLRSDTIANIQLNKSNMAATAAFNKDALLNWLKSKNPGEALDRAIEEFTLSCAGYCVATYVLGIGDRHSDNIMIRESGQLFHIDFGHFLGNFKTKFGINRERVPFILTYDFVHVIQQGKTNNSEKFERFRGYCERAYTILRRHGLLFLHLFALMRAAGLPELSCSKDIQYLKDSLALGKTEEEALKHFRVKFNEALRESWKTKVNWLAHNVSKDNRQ

Study 1 — Structure (SMILES): O=c1nc(-c2ccccn2)sc2ccccc12; technique: competition with immobilised ligand; tested at: 1 µM
target	test	remaining binding [%]
CSNK1A1 (Homo sapiens, UniProt P48729)	cell-free assay	76
PIK3CD (Homo sapiens, UniProt O00329)	cell-free assay	54
MAP3K19 (Homo sapiens, UniProt Q56UN5)	binding	86
SRMS (Homo sapiens, UniProt Q9H3Y6)	cell-free assay	87
Ribosomal protein S6 kinase alpha-1, C-terminal kinase domain (RPS6KA1, Homo sapiens, UniProt Q15418)	binding	100
MAP4K4 (Homo sapiens, UniProt O95819)	binding	100
Tyrosine-protein kinase ABL1, phosphorylated (ABL1, Homo sapiens, UniProt P00519, H396P)	binding	99
TTK (Homo sapiens, UniProt P33981)	binding	100
PTK6 (Homo sapiens, UniProt Q13882)	binding	100
PKN1 (Homo sapiens, UniProt Q16512)	binding	77
Tyrosine-protein kinase ABL1, phosphorylated (ABL1, Homo sapiens, UniProt P00519, T315I)	binding	100
CDK9 (Homo sapiens, UniProt P50750)	binding	95
CAMKK2 (Homo sapiens, UniProt Q96RR4)	binding	90
PIP5K1C (Homo sapiens, UniProt O60331)	binding	84
Ribosomal protein S6 kinase alpha-1, N-terminal kinase domain (RPS6KA1, Homo sapiens, UniProt Q15418)	binding	100
MAP3K12 (Homo sapiens, UniProt Q12852)	binding	100
MAPK13 (Homo sapiens, UniProt O15264)	binding	99

Study 2 — Structure (SMILES): COc1cccc(-c2cc(=O)c3ccccc3o2)c1N; effect on: enzyme activity; action: inhibitor; tested at: 0.5 µM; reference: control
target	remaining activity [%]
CAMK1 (Homo sapiens, UniProt Q14012)	98.5
CLK2 (Homo sapiens, UniProt P49760)	103
PRKCZ (Homo sapiens, UniProt Q05513)	99.1
SRPK1 (Homo sapiens, UniProt Q96SB4)	93.4
SIK2 (Homo sapiens, UniProt Q9H0K1)	102
CSNK1E (Homo sapiens, UniProt P49674)	97.5
EPHA2 (Homo sapiens, UniProt P29317)	105
EPHA6 (Homo sapiens, UniProt Q9UF33)	81.2
JAK1 (Homo sapiens, UniProt P23458)	98.9
RPS6KA3 (Homo sapiens, UniProt P51812)	93.6
CSNK1D (Homo sapiens, UniProt P48730)	99.1
TEC (Homo sapiens, UniProt P42680)	99.2
FLT1 (Homo sapiens, UniProt P17948)	87.7
MUSK (Homo sapiens, UniProt O15146)	94.2
IGF1R (Homo sapiens, UniProt P08069)	91.3
PAK6 (Homo sapiens, UniProt Q9NQU5)	95.5

Study 3 — target: CCNB1, cyclin fold, Cln2 fusion (human); technique: yeast growth competition, sequencing; medium: yeast; setting: weak parent motif; reference: not given; direction: higher = stronger binding
Parent: CDC25A docking peptide (human); PPHRRRLLFACSP
Change	normalised enrichment score
PPHRYRLLFACSP [R5Y]	-0.0136
PPHRRRLLFAESP [C11E]	0.569
PPHRQRLLFACSP [R5Q]	0.865
PPHVRRLLFACSP [R4V]	0.955
PPHRRRLLGACSP [F9G]	1.77
TPHRRRLLFACSP [P1T]	0.356
PAHRRRLLFACSP [P2A]	0.607
PPHRRRLLFACSC [P13C]	0.75

Study 4 — technique: protein-binding microarray; molecule type: double-stranded DNA, one strand shown; medium: in vitro; tested at: 0.8 µM; setting: whole 60-bp probe, no competitor; direction: higher = stronger binding; all sequences stand within: … GTCTTGATTCGCTTGACGCTGCTG
Target: Centromere-binding protein 1, full length, N-terminal tag (CBF1, Saccharomyces cerevisiae, UniProt P17106, residues 1-351)
Sequence of UniProt P17106 (whole entry, looked up): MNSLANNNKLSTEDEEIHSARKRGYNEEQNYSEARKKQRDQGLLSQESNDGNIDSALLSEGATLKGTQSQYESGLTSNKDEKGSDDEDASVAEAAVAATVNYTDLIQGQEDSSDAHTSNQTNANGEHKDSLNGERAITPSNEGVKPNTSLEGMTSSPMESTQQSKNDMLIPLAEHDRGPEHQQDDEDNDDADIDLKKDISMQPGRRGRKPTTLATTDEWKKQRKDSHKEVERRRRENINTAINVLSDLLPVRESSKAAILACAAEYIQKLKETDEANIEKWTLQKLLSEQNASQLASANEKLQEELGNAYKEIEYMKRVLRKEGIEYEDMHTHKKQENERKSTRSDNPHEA
Sequence	fluorescence intensity [a.u.]
CTATTTCTATTTCACCACGAACAACATTATGTCTTC	589
CTACAGATGAAGTGCCAGGTGGCGTACCAGGACTTC	500
GAAAGAAAGCCTTACAGGGTGACACTCAATTTGTAG	510
GAATGGGGCTTGTTTCACGTTTTCTGTCCCAAATAG	555
TGTACGAAGCTATTAAGTGTGATTATAGTAGTTAGG	519
GAATATCCAAACCAGCATCAGGAAAAGCCTGAATAG	497
CTAGCACCTGCTAATCTGGTGGATAACGGCAGGTTC	506
CTAAAAATTCCCCTTTCCGTGATGCGGGTAATATTC	515

Some of these lines once more (study 1):
target	test	remaining binding [%]
Ribosomal protein S6 kinase alpha-1, C-terminal kinase domain (RPS6KA1, Homo sapiens, UniProt Q15418)	binding	100
PIP5K1C (Homo sapiens, UniProt O60331)	binding	84
PKN1 (Homo sapiens, UniProt Q16512)	binding	77
MAP3K19 (Homo sapiens, UniProt Q56UN5)	binding	86
MAPK13 (Homo sapiens, UniProt O15264)	binding	99
Tyrosine-protein kinase ABL1, phosphorylated (ABL1, Homo sapiens, UniProt P00519, H396P)	binding	99
